Measurements collected from several papers.
Each line is one published result; not all experiments were run side by side. ± gives the spread as reported.

SMILES | assay | test system | conditions | how to read | endpoint | value
CC12CC(O)C3CC1(OC1OC(CO)C(O)C(O)C1O)C3(COC(=O)c1ccccc1)C(=O)O2 (centres unmarked) |  | ICR mice | oral, 14 mg/kg, 2 h |  | brain level | not detected
COc1cccc(OCCN2CCC[C@H](CN3CCc4cc(OC)c(OC)cc4CC3=O)C2)c1 |  | C57BL/6 mice, brain | intraperitoneal, 20 mg/kg, 15 min | relative to: compound over cilobradine | brain concentration ratio | > 1
CC(C)C[C@H](NC(=O)[C@H](CCCNC(=N)N)NC(=O)CNC(=O)[C@@H](N)CC(C)C)C(=O)N[C@@H](CO)C(=O)N[C@@H](CCC(N)=O)C(=O)N[C@@H](CCC(=O)O)C(=O)N[C@@H](CC(C)C)C(=O)N[C@@H](Cc1c[nH]cn1)C(=O)N[C@@H](CCCNC(=N)N)C(=O)N[C@@H](CC(C)C)C(=O)N[C@@H](CCC(N)=O)C(=O)N[C@H](C(=O)N[C@@H](Cc1ccc(O)cc1)C(=O)N1CCC[C@H]1C(=O)N[C@@H](CCCNC(=N)N)C(=O)N[C@H](C(=O)N[C@@H](CC(N)=O)C(=O)N[C@H](C(=O)NCC(=O)N[C@@H](CO)C(=O)N[C@@H](CC(N)=O)C(=O)N[C@H](C(=O)N[C@@H](Cc1ccc(O)cc1)C(N)=O)[C@@H](C)O)[C@@H](C)O)[C@@H](C)O)[C@@H](C)O |  | wild-type mice, brain, ex vivo | ip, 0.1 mmol Cy5-labelled, 2 h | relative to: saline | brain fluorescence | 2 fold
N=C(N)NCCC[C@@H]1NC(=O)[C@H](Cc2c[nH]c3ccccc23)NC(=O)[C@@H](CC2CCCCC2)NC(=O)[C@@H]2CCCN2C(=O)[C@@H](NC(=O)CCc2ccccc2)CCCNC1=O |  | C57BL/6J mice, brain | intravenous, 1 mg/kg, up to 120 h |  | brain elimination time | ≤ 24 h
O=[11C](N1CCC(CNS(=O)(=O)c2ccc(Cl)cc2)CC1)n1cncn1 | PET | PgP/Bcrp knockout mice, brain | dose not given | relative to: wild-type mice | brain uptake change | ~10%
N#Cc1nc(N2CCOCC2)nc(N(Cc2ccc(F)cc2)CC2CCCNC2)n1 (centres unmarked) |  | female CD-1 mice | intraperitoneal, 10 mg/kg, 7 h |  | brain concentration | 12.4 ng/g
CN(C)C(=O)c1ncn2c(=O)n(C)nnc12 |  | CD-1 IGS mice, brain and serum | intravenous, 25 mg/kg, 5 min | relative to: temozolomide | brain to serum ratio | > 3 fold
COc1cc2c(cc1OC)CN(CCCCn1ccc3cc(OCC[18F])ccc31)C2 |  | male ICR mice | intravenous, 120 min post-injection |  | brain uptake | 1.58 ± 0.16 %ID/g
COc1ccc(OC)c(/C(=C\c2ccc(O)c(O)c2)C(=O)NCCc2ccc(O)cc2)c1 |  | C57BL mice, pseudo-germ-free, brain | oral, 75 mg/kg of FLZ, 8 weeks | relative to: control mice | brain concentration | decreased
CC(C)CCN(Cc1ccc(F)cc1)c1nc(C#N)nc(N2CCOCC2)n1 |  | female CD-1 mice | intraperitoneal, 10 mg/kg, 2 h |  | brain concentration | 16.1 ng/g
Cc1cc2c(c(=O)o1)C=C1CCC(C(C)CNCc3ccc(O)cc3)CC1O2 (centres unmarked) | HPLC-MS | 5xFAD mice | oral in drinking water, dose not given, two months |  | brain concentration | 4.3 ± 0.89 µM

For quick reference, copied from above:
SMILES | assay | test system | conditions | how to read | endpoint | value
COc1cc2c(cc1OC)CN(CCCCn1ccc3cc(OCC[18F])ccc31)C2 |  | male ICR mice | intravenous, 120 min post-injection |  | brain uptake | 1.58 ± 0.16 %ID/g
COc1ccc(OC)c(/C(=C\c2ccc(O)c(O)c2)C(=O)NCCc2ccc(O)cc2)c1 |  | C57BL mice, pseudo-germ-free, brain | oral, 75 mg/kg of FLZ, 8 weeks | relative to: control mice | brain concentration | decreased
